Assay results gathered from unrelated publications.
Lines come from different studies, so protocols differ. Several values in a cell are separate wells, animals, samples, runs or records. Numbers after ± are the reported error.

O=S(=O)(NNc1nnc(Cl)c2ccccc12)c1ccc(F)cc1 — cytotoxicity (Vero; MTT; 500 µg/mL): 95.2%
Cn1nc(-c2ccc(Cl)cc2)nc2c(=O)n(C)c(=O)nc1-2 — efficacy (LDR; silenced CMV-GFP reporter derepression, qHTS): 33%
COc1cnc2cccc(N3CCc4c(cc(Cn5ccnc5C)cc4-c4cn(C)nc4C(F)(F)F)C3=O)c2c1 — EC50 (Panc 04.03; cell growth; 120 h): 48.3 nM
O=c1[nH]nc(OCCCc2ccc(Cl)cc2)c(NCc2cccnc2)c1Br — normalized enrichment score (HEK-293T; RNA-seq GSEA, measured: HALLMARK_MYOGENESIS; concentration not given; direction not given): -0.951
O=C(C[C@@H](C(F)F)n1ccc(F)n1)N1CCC(O)(Cn2cnc3c(cnn3-c3ccc(F)cc3)c2=O)CC1 — cells in G1 phase (CHP-212 parental (wild-type USP7); PI flow cytometry; 1 µM, 24 h): 72.2% and 69.3% and 82.8%
O=C(Cn1c(=O)n(Cc2ccc(F)cc2)c(=O)c2sc3ccccc3c21)Nc1ccc(F)cc1F — efficacy (LDR; silenced CMV-GFP reporter derepression, qHTS): 29%
Nc1cccc2c1CN(C1CCC(=O)NC1=O)C2=O (stereo not drawn) — viability (bone marrow CD138+ myeloma cells; XTT; 1.6 µM, mean of three patients): 25%
CC[C@H](C)[C@H](NC(=O)[C@H](CCCCN)NC(=O)[C@@H](NC(=O)[C@H](CCCNC(=N)N)NC(=O)[C@@H](NC(=O)[C@@H](CCCNC(=N)N)NC(=O)[C@@H](CCCNC(=N)N)NC(=O)[C@@H](CCCNC(=N)N)NC(=O)[C@@H](CCCNC(=N)N)NC(=O)[C@@H](CCCNC(=N)N)NC(=O)[C@H](N)CCCNC(=N)N)[C@@H](C)O)[C@@H](C)O)C(=O)N[C@@H](CC(=O)O)C(=O)N[C@@H](Cc1c[nH]c2ccccc12)C(=O)NC(C)(C)C(=O)N[C@@H](CCCCN)C(=O)N[C@H](C(=O)N[C@@H](CC(C)C)C(=O)NC(C)(C)C(=O)N[C@@H](CCCCN)C(=O)NCCCCCC(=O)NCCCC[C@H](NC(=O)CCCCCNC(=O)[C@H](CCCCN)NC(=O)C(C)(C)NC(=O)[C@H](CC(C)C)NC(=O)[C@@H](NC(=O)[C@H](CCCCN)NC(=O)C(C)(C)NC(=O)[C@H](Cc1c[nH]c2ccccc12)NC(=O)[C@H](CC(=O)O)NC(=O)[C@@H](NC(=O)[C@H](CCCCN)NC(=O)[C@@H](NC(=O)[C@H](CCCNC(=N)N)NC(=O)[C@@H](NC(=O)[C@@H](CCCNC(=N)N)NC(=O)[C@@H](CCCNC(=N)N)NC(=O)[C@@H](CCCNC(=N)N)NC(=O)[C@@H](CCCNC(=N)N)NC(=O)[C@@H](CCCNC(=N)N)NC(=O)[C@H](N)CCCNC(=N)N)[C@@H](C)O)[C@@H](C)O)[C@@H](C)CC)[C@@H](C)CC)C(N)=O)[C@@H](C)CC — Akt, ERK, Stat3 phosphorylation (SK-MEL-5; Western blot; 10 µM, within 0.5 to 2 h): inhibited
Cl.Cl.NCCNS(=O)(=O)c1ccc(Cl)c2ccncc12 — relative cell number (SK-OV-3; ATP; 10 µM, 4 days, 3D U-bottom low-attachment; baseline: untreated): 114%
CN(C)c1ccc2nc3ccc(=[N+](C)C)cc-3sc2c1 — mIPSC decay phase (mouse hippocampal CA1 pyramidal neurons; GABAergic miniature IPSCs, whole-cell patch clamp; brain slice; 10 µM): no effect
COc1cc(/C=C/C(=O)N2CCC=CC2=O)cc(OC)c1OC — mRNA level (MDA-MB-468; qRT-PCR, measured: DAPK1; 30 µM, 6 h; baseline: time zero): 84.7 ± 23.2%
CCCCCCCCCCCCCCCC(NCc1cccc(C)c1)=C1C(=O)OC(CO)C1=O (stereo not drawn) — G2/M phase cells (G2-synchronized tsFT210 cells; flow cytometry; 50 µM, 4 h, 32 °C, release from G2 arrest): 38.3%
Cc1cc(N2CCN(c3ccc([N+](=O)[O-])c4cccnc34)CC2)c2ccccc2n1 — efficacy (LDR; silenced CMV-GFP reporter derepression, qHTS): 169%
Cn1cc(C2=C(c3ccc(Cl)cc3Cl)C(=O)NC2=O)c2ccccc21 — NeuN protein level (primary human cortical neurons; Western blot; 5 µM, 48 h, with: HIV Tat 100 ng/mL and maraviroc 2.5 µM; baseline: Tat-treated cells, increase): 2.94 fold
O=P1(C2CCCCC2)CCCCC1 — IL-6 level (HaCaT; ELISA; IC50, 72 h): 12 ± 1.26 pg/mL
COc1cc2ncnc(Nc3ccc(Oc4ccccc4)cc3C)c2cc1OC — viability (MeWo (NF1); resazurin; 0.3 µM, 72 h, with: trametinib 0 nM): 99.3%
Cn1cc(-c2ccc(-c3cncc(Cl)c3N3CCC4(CCNC4=O)CC3)cc2)cn1 — log2 fold change (COLO 205; gene expression, microarray, measured: FAM65C mRNA; concentration not given, 2 h; baseline: untreated cells): -1.75
O=C1c2ccncc2C(=O)c2c1[nH]c1ccccc21 — minimum effective concentration (PAH hPASMC; mitochondrial fission, inhibitor): 0.1 µM
N[C@@H](CS(=O)(=O)O)C(=O)O — log2 fold change (binding, MIDAS equilibrium dialysis LC-MS; A2AR-BRIL thermostabilized; concentration not given; baseline: no-protein control): -0.342
Cc1c(C)c2c(c(C)c1O)CCC(C)(COc1ccc(CC3SC(=O)NC3=O)cc1)O2 (stereo not drawn) — IC50 (iPSC-derived hepatocytes B1; cell viability; 48 h, differentiation day 23): 72000 nM
CCn1cc(-c2cc(Cn3ccoc3=N)cc3c2CCN([C@@H](C)c2cc(OC)ccn2)C3=O)c(C(F)(F)F)n1 — EC50 (DOHH-2; cell growth, inhibitor; 120 h): 1430 nM
O=C1CN(c2nc(-c3ccccc3)c3cc(Cl)ccc3n2)c2ccccc2N1 — efficacy (LDR; silenced CMV-GFP reporter derepression, qHTS): 26%
CC(=O)Nc1cccc(-n2c(=O)n(C3CC3)c(=O)c3c(Nc4ccc(I)cc4F)n(C)c(=O)c(C)c32)c1 — fractional effect (MeWo (NF1); cell viability, resazurin; 100.00 nM, 72 h; baseline: DMSO): 0.5 and 0.447
C[C@H](NC(=O)C(=O)Nc1ccccc1C(C)(C)C)C(=O)N[C@@H](CC(=O)O)C(=O)COc1c(F)c(F)cc(F)c1F — PI-positive cells (mouse thymocytes; flow cytometry; 10 µM, without FasL): 118% and 110% and 117%
CC(C)NCC(O)c1ccc(O)c(O)c1 (stereo not drawn) — sarcomere length (mouse ventricular cardiomyocytes; dose not given, 0.291 s): 1.8 µm
CN1C(=O)C(=O)c2cc3c(c4c2c1cc1ccccc14)OCO3 — inhibition (S102; cytotoxicity, MTT; 50 µg/mL, 48 h): < 50%
Nc1nnc(-c2ccccc2O)cc1N1CCN(Cc2ccc(OCCOCCNc3cccc4c3C(=O)N(C3CCC(=O)NC3=O)C4=O)c(F)c2)CC1 (stereo not drawn) — lost enhancer peaks (H1975 SMARCA4 wild type; ATAC-seq; 1 µM, 96 h): 8%
Cc1cc(NS(=O)(=O)c2ccc(NC(=O)/C(C#N)=C/c3ccc(N4CCCCC4)cc3)cc2)no1 — G2/M phase cells (HCT-116; propidium iodide flow cytometry; IC50, 48 h): 3.4%
CCc1ccc(NC(=O)Nc2c[nH]c3ccccc23)cc1 — phospho-TBK1/TBK1 ratio (RAW-ISG; western blot; concentration not given, with: poly(I:C); baseline: vehicle): 0.671 and 0.854
Nc1ncnc2c1ncn2[C@@H]1O[C@H](CO)[C@@H](O)[C@H]1O — T cell proliferation (activated human T cells; 10 µM; higher = more proliferation): 41 a.u. and 54.1 a.u. and 40.3 a.u.
Cc1c(C(=O)O)ccc2c3n(nc12)[C@@H]1[C@H](C3)N(CC2CC2)[C@@]2(C(=O)Nc3cc(Cl)ccc32)[C@H]1c1cccc(Cl)c1F — GI50 (MDM2-amplified well-differentiated liposarcoma cells; alamarBlue; 120 h): 3 nM
Cn1cnc2c1c(=O)n(CC(=O)Nc1c(Cl)cccc1Cl)c(=O)n2C — cytotoxicity (Vero; MTT; 250 µg/mL): 29.3%
CC(=O)c1nn(-c2ccc(Cl)cc2)/c(=N/N=C(\C)c2ccc(NC(=O)c3ccc(C)cc3)cc2)s1 — viability (HepG2; 0.625 µM): 21.6%
CC(C)C[C@H](NC(=O)[C@H](Cc1ccccc1)NC(=O)c1cnccn1)B(O)O — decrease in BRD4 level (HiBiT-BRD4 LgBiT cells; 1 µM, 24 h, no PROTAC): ~50%
Cc1nn(-c2nc3c(F)cc(F)cc3s2)c(O)c1C(c1ccc(C(F)(F)F)cc1)c1c(C)nn(-c2nc3c(F)cc(F)cc3s2)c1O — phospho-IRF3 to IRF3 ratio (RAW-ISG; western blot; 20 µM, with: HT-DNA; baseline: DMSO): 0.339 and 0.179 and 0.21
CN(C)S(=O)(=O)c1cccc(NC(=S)N/N=C/c2ccco2)c1 — efficacy (LDR; silenced CMV-GFP reporter derepression, qHTS): 121%
CSc1cc(Oc2ccnc3[nH]c(=O)cnc23)ccc1NC(=O)Nc1cc(C(C)(C)C)nn1-c1ccccc1 — phospho/total ratio (patient-derived cell line clone A; RPPA, measured: mTOR phosphosite 2448; human; 1 µM, 4 h; baseline: DMSO): 0.78
Clc1nc(NCc2ccco2)c2[nH]cnc2n1 — ΔPSI (FD iPSC-derived cardiomyocytes; alternative splicing, RNA-seq, measured: GSN exon chr9(+):121300055-121300126; unit not given; baseline: DMSO minus compound): -0.322
[Cl-].[Cl-].[Os+2].c1cnc2c(c1)ccc1cccnc12.c1cnc2c(c1)ccc1cccnc12.c1cnc2c(c1)ccc1cccnc12 — GI50 (SK-MEL-28; sulforhodamine B; normoxia, with: green light 523 nm): 18100 nM
Cc1nc(N(Cc2ccccc2)c2ccc3c(c2)/C(=C/c2ccccc2)C(=O)N3Cc2ccccc2)c2ccccc2n1 (mixture of isomers) — reduction of wound healing rate (LLC; 0.5 µM, 24 h; baseline: untreated): 8.73%
Cn1ncnc1[C@H]1c2n[nH]c(=O)c3cc(F)cc(c23)N[C@@H]1c1ccc(F)cc1 — RPA and γH2AX foci (T98G; immunofluorescence; 3 nM, with: temozolomide 100 µM; baseline: DMSO): no effect
CC/C(=N\NC(=O)NCc1cccc(O)c1)c1ccc(O)c(C)c1O — log ratio (SK-OV-3; gene expression, microarray, measured: KCNJ16; 10 µM, 24 h; baseline: DMSO): -2.95
CCOC(=O)c1c(NC(=O)CC2Nc3cc(C)c(C)cc3NC2=O)sc(C)c1C (stereo not drawn) — efficacy (LDR; silenced CMV-GFP reporter derepression, qHTS): 201%
O=C(/C=C/C=C/C=C/C1CCCCC1)NC1=C[C@@](O)(/C=C/C=C/C=C/C(=O)NC2=C(O)CCC2=O)[C@@H]2O[C@@H]2C1=O — GI50 (SHP77; cell growth, CellTiter-Glo; 78 h): 9490 nM
CCCCS(=N)(=O)CCC(N)C(=O)O (stereo not drawn) — cellular GSH concentration (OVCAR-5; LC-ESI-MS/MS, measured: glutathione; 40 µM, 12 h): 31.7 ± 3.3 µM
C=CCn1c(=O)c2cnc(Nc3ccc(N4CCN(C)CC4)cc3)nc2n1-c1ccc2c(n1)[C@@](O)(CC)CC2 — γH2AX-positive cells (Kuramochi; flow cytometry; 1 µM, 24 h): 9.8%
O=C(COc1ccc(Cl)cc1)NC12CC(c3nnc([C@H]4C[C@@H](OC(F)(F)F)C4)o3)(C1)C2 — phospho-eIF2α level (H4 expressing GFP-TDP-43 fragment; 1 µM): no effect
Cn1cc(Nc2nccc(-c3ccc4c(c3)CN(C3COC3)CC[C@H]4NC(=O)c3cn(C(C)(C)C)nn3)n2)cn1 — pathway activation z-score (mouse splenic B cells; measured: Triacylglycerol biosynthesis; 30 mg/kg, IgD-activated in vivo; baseline: vehicle, direction not given): -0.816
C=CC1=C(C)c2cc3[n-]c(cc4nc(cc5[n-]c(cc1n2)c(C)c5C=C)C(C)=C4CCC(=O)O)c(CCC(=O)O)c3C.[Zn+2] — fold change (SH-SY5Y; RNA-seq, measured: INSYN2B mRNA; 5 µM, 5 h; baseline: untreated cells): 4.05
CCn1cc(-c2cc(Cn3ccnc3)cc3c2CCN([C@H](c2cc(OC)ccn2)C2CC2)C3=O)c(C(F)(F)F)n1 — EC50 (GSU; cell growth; 120 h): 674 nM
Cc1cc(Nc2ncc(Cl)c(Nc3ccccc3S(=O)(=O)C(C)C)n2)c(OC(C)C)cc1C1CCNCC1 — log2 fold change (CLB-GE; phosphoproteomics LC-MS/MS, measured: BRD2 phosphorylation; 200 nM, 60 min; baseline: untreated): -4.03

A few entries again:
Cn1nc(-c2ccc(Cl)cc2)nc2c(=O)n(C)c(=O)nc1-2 — efficacy (LDR; silenced CMV-GFP reporter derepression, qHTS): 33%
COc1cnc2cccc(N3CCc4c(cc(Cn5ccnc5C)cc4-c4cn(C)nc4C(F)(F)F)C3=O)c2c1 — EC50 (Panc 04.03; cell growth; 120 h): 48.3 nM
O=c1[nH]nc(OCCCc2ccc(Cl)cc2)c(NCc2cccnc2)c1Br — normalized enrichment score (HEK-293T; RNA-seq GSEA, measured: HALLMARK_MYOGENESIS; concentration not given; direction not given): -0.951
